Assay results of several laboratories.
Parts stem from different laboratories: compare values within a part only. Positions count from the first letter of the parent shown.

Study 1
Target: tungstate, free oxyanion
Technique: microfluidic competitive inhibition
Matrix: in vitro, cell-free expressed
Concentration: not given
Setting: derived from inhibition constants, unchanged parent 2230 nM
Reading: lower = stronger binding
Quantity: oxyanion analog dissociation constant
Parent: PafA, mature enzyme, eGFP fusion (Elizabethkingia meningoseptica, UniProt Q9KJX5); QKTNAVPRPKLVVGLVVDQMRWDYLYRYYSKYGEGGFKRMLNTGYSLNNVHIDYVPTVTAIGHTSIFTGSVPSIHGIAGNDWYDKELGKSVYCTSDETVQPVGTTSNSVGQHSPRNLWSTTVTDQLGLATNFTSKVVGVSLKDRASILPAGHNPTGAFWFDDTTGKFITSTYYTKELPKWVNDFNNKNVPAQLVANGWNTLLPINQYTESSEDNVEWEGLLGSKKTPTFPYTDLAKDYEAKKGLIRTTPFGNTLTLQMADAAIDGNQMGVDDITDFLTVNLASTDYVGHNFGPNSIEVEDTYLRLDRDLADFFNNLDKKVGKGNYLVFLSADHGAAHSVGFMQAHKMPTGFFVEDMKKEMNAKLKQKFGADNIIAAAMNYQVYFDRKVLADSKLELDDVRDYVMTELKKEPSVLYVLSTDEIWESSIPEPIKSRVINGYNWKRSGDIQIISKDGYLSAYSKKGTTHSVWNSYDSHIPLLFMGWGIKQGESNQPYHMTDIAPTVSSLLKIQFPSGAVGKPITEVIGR
Q343V: 2.14 µM
S30V: 2.32 µM
V382G: 2.26 µM
V194A: 2.19 µM
V215A: 1.97 µM

Study 2
Target: Interferon regulatory factor 7, full length, phosphomimetic (IRF7, Homo sapiens, UniProt Q92985, residues 1-503, S471D/S472D/S475D/S476D/S477D/S483D/S484D/S487D)
Technique: protein-binding microarray
Form: double-stranded DNA, one strand shown
Matrix: in vitro
Concentration: 2200 nM top
Setting: 60-bp whole probe
With: salmon DNA 0.4 mg/ml
Relative to: random background probes
Reading: higher = stronger binding
Quantity: fitted relative affinity
All sequences stand within: GCCTAGCAC … GTCTTGATTCGCTTGACGCTGCTG
Residues (chain): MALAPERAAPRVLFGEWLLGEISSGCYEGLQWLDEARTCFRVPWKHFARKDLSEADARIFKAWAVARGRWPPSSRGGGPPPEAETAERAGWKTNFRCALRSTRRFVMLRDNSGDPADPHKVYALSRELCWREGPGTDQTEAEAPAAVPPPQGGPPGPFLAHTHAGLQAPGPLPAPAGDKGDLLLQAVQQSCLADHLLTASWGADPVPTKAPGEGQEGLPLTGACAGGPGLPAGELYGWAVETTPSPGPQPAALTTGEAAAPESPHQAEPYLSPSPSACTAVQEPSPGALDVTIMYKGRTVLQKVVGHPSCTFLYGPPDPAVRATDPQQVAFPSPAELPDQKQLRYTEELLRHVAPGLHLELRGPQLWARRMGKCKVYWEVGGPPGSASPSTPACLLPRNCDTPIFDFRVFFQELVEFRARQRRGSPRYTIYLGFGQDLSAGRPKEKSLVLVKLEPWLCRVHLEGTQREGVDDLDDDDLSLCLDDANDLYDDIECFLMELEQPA
GACGGACTGGGTATCTGGACGTGCTAG: -0.764 z-score
TTAGATTTCATTCTCGATTAGTGCTAG: 1.17 z-score
TTAGGACTGGGTATCGCTTAGTGCTAG: -0.32 z-score
TCACTTTTTTTTTTCCCACTGTGCTAG: 3.25 z-score
TCATATTCAGGTATATAACTGTGCTAG: 1.19 z-score
CACGGTTTCGGGTTTCGGGACGTGCTA: 9.91 z-score
ATAGGTTTCCTTTCCCTTTAGTGCTAG: 5.4 z-score
GACGGTCTCCTTCTCCTGACGTGCTAG: 1.02 z-score

Study 3
Target: CCNF, cyclin fold, Cln2 fusion (human)
Technique: yeast growth competition, sequencing
Matrix: yeast
Setting: strong parent motif
Relative to: not given
Reading: higher = stronger binding
Quantity: normalised enrichment score
Parent: viral docking peptide; KGVKRKLFAEDSS
R5A L7A: 0.401
R5S: 0.285
S12K: 7.9
D11N: 8.2
K4H: 7.44
V3I: 7.59
R5W: 1.01
S12L: 8.13
G2K: 7.82
F8H: 0.327
K4N: 8.25
G2T: 8.12
K6L: 5.97
G2E: 7.66
A9W: 8.36
R5K: 5.05
V3F: 4.7

Study 4
Target: UDP-N-acetylglucosamine--peptide N-acetylglucosaminyltransferase 110 kDa subunit (OGT, Homo sapiens, UniProt O15294)
UniProt O15294, sequence (whole entry, looked up): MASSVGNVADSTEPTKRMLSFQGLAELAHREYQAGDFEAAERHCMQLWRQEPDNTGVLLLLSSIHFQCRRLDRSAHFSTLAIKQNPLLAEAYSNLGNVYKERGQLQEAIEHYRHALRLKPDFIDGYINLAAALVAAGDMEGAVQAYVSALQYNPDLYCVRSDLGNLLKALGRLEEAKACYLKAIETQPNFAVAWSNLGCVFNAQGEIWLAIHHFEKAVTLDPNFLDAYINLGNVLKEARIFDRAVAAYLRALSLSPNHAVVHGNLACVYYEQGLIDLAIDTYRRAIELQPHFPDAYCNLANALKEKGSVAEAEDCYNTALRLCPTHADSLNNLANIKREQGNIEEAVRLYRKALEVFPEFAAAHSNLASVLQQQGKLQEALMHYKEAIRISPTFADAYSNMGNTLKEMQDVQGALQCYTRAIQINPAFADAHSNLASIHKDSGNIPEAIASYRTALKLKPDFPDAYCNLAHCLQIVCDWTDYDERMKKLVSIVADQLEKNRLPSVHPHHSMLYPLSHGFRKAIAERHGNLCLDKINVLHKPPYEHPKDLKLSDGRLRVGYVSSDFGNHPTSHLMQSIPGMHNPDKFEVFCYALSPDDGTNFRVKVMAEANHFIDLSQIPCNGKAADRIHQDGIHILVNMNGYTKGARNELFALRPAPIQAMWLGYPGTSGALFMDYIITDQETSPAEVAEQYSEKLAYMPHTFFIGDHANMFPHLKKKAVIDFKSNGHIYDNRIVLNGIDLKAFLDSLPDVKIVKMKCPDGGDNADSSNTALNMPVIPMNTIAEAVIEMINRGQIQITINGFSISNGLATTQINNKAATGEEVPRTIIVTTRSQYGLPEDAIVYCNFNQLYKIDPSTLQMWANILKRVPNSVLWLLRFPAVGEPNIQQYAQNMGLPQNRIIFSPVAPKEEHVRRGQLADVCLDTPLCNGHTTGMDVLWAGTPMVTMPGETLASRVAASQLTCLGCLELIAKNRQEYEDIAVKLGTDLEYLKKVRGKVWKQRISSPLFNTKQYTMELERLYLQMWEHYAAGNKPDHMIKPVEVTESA
Effect on: binding
Technique: phage display NGS
Form: peptide
Concentration: concentration not given
Setting: panning round 2
Relative to: input library
Quantity: enrichment fold change
HQRMDTSNDWKHHH: 5.78
TKFAPQYILEYSKVY: 5.79
HWVGTTHHSTMHNHD: 7.15
WIRSPHQHGQIHRS: 6.93
TTHYLPVYQIELKNA: 10
EWLPMYQIQYVMYAT: 6.62
